Results pooled from the literature.
Each line is one published result; not all experiments were run side by side.
Target: Serine/threonine-protein kinase MAK (MAK, Homo sapiens, UniProt P20794)

SMILES	assay	conditions	how to read	measurement	value
COc1cc(Nc2nc(C)cc(-c3cnn4nc(OC)ccc34)n2)cc(C(F)(F)F)c1	inhibitor	1 µM	baseline: control	remaining activity	84%
CNC1C[S+]2CC[S+]3CC[S+](C1)[Ru-4]321([N]=C=S)[n]2c3ccc(OC)cc3c3c4c(c5cc(F)c[n+]1c5c32)C(=O)NC4=O (stereo not shown)	KinomeScan	0.1 µM	baseline: untreated	remaining binding	51%
C=CC(=O)N1CCCC(n2c(=O)c3ncccc3n(Cc3ccc(Oc4ccccc4)cc3)c2=O)C1 (stereo not shown)	cell-free assay, competition with immobilised ligand	1 µM		remaining binding	100%
Nc1ncc(-c2cc(-c3cnn(CC(F)(F)F)c3)ncc2F)nc1C(=O)NC1CNCC(F)C1 (stereo not shown)	enzyme activity	1 µM	baseline: DMSO control	remaining activity	96.7%
CC(C)=CC1OC(C)(C)C2C=C3C(=O)C(Cl)=CC(O)C3C3C(O)C4OC4C(=O)C132 (stereo not shown)	cell-free assay, competition with immobilised ligand	10 µM		remaining binding	100%
CN1CC[C@@H](COc2cnc(C#N)cc2-c2ccn3nc(NC(=O)C4CC4)cc3c2)C1	enzyme activity, inhibitor	1 µM		inhibition	-13%
O=C(Cc1ccc(OCc2ccccc2)cc1)NC1(C(=O)O)CCN(C(=O)c2ccc(-c3cccc(Cl)c3)cc2)CC1	enzyme activity, inhibitor	10 µM		activity vs control	97%
CCn1cc(C(=O)O)c(=O)c2c(N)c(F)c(NC3CCCCC3)cc21	kinase activity	0.1 µM, together with: ATP at Km		inhibition	5.5%
Cc1cnc2nc1Nc1cccc(c1)COC/C=C/COCc1cc(ccc1OCCN1CCOCC1)N2	binding	0.1 µM		remaining binding	88%
CNC(=O)C1CCN(c2cc(C)c(F)cc2NC(=O)c2ccc(-c3cc(O)ccc3C)c(C)c2)CC1	binding, competition with immobilised ligand	1 µM		remaining binding	96%
C=CC(=O)N1CCc2ccc(-n3c(=O)ccc4cnc5ccc(-c6cnn(C)c6)cc5c43)cc21	KINOMEscan	1 µM	baseline: DMSO control	remaining binding	100%
Cc1ccc(-c2c(/C=C(\C#N)C(=O)NC(C)C)n(CCCO)c3ncnc(N)c23)cc1	cell-free assay, competition with immobilised ligand	1 µM		remaining binding	100%
COc1cc(Nc2nccc(-c3cnn4nc(OC)ccc34)n2)cc(C(F)(F)F)c1	binding, competition with immobilised ligand	1 µM		remaining binding	100%
Nc1ncc2c(n1)-c1c([nH]c3ccc(C4=CCOCC4)cc13)CCC2	binding, competition with immobilised ligand	1 µM		remaining binding	99%
COc1c(Cl)cccc1Nc1c(-c2ccncc2C#C[C@@]2(C)CCCN2C(=O)/C=C/CN(C)C)[nH]c2c1C(=O)NCC2	binding, competition with immobilised ligand	3 µM		remaining binding	100%
CCN1CCN(Cc2ccc(C(=O)Nc3ccc(C)c(NCc4cnc5[nH]ccc5c4OC)c3)cc2C(F)(F)F)CC1	binding, competition with immobilised ligand	1 µM		remaining binding	80%

For quick reference, copied from above:
SMILES	assay	conditions	how to read	measurement	value
Cc1ccc(-c2c(/C=C(\C#N)C(=O)NC(C)C)n(CCCO)c3ncnc(N)c23)cc1	cell-free assay, competition with immobilised ligand	1 µM		remaining binding	100%
COc1cc(Nc2nc(C)cc(-c3cnn4nc(OC)ccc34)n2)cc(C(F)(F)F)c1	inhibitor	1 µM	baseline: control	remaining activity	84%
Nc1ncc2c(n1)-c1c([nH]c3ccc(C4=CCOCC4)cc13)CCC2	binding, competition with immobilised ligand	1 µM		remaining binding	99%
